Published values gathered from unrelated publications.
Parts stem from different laboratories: compare values within a part only. Values joined by “and” are separate records of one study, mostly repeats; a detail may differ.
UniProt Q9Y4B6, sequence (whole entry, looked up): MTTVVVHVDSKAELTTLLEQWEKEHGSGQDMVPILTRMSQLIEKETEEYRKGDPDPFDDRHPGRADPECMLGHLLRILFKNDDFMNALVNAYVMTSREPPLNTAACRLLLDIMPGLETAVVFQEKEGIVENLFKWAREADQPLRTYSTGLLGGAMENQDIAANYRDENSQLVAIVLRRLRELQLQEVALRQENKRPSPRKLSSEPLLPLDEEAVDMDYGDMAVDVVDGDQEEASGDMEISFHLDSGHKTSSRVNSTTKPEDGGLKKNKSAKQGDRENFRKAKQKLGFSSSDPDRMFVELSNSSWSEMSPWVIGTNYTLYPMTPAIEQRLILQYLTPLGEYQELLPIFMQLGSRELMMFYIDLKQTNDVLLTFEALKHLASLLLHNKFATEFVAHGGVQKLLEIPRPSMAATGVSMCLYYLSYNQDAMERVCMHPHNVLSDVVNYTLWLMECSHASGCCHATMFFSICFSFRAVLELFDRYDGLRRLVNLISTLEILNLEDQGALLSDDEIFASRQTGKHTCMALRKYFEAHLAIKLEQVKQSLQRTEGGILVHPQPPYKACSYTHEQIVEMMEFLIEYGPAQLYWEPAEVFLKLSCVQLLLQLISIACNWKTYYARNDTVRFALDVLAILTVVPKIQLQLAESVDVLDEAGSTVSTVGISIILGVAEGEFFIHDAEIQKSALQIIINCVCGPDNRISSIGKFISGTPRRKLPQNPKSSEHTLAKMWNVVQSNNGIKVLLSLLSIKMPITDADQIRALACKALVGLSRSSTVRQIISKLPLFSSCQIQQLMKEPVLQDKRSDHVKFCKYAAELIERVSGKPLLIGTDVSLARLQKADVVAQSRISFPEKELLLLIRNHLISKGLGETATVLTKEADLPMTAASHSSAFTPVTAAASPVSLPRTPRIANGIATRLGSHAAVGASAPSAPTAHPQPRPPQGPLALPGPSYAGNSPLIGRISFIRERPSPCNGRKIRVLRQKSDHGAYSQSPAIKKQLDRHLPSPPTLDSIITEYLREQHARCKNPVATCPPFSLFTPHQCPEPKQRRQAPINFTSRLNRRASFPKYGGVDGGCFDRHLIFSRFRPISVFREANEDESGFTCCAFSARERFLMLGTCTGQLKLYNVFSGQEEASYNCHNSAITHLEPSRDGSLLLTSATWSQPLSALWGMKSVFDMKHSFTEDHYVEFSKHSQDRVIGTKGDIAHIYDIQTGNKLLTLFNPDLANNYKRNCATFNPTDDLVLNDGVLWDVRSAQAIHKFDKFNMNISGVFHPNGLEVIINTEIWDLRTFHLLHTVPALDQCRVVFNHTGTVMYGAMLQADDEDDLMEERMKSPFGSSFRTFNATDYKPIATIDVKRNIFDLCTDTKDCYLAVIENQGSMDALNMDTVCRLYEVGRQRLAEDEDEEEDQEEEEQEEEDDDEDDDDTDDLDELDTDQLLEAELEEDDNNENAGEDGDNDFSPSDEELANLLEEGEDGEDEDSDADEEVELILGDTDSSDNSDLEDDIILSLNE
UniProt Q99640, sequence (whole entry, looked up): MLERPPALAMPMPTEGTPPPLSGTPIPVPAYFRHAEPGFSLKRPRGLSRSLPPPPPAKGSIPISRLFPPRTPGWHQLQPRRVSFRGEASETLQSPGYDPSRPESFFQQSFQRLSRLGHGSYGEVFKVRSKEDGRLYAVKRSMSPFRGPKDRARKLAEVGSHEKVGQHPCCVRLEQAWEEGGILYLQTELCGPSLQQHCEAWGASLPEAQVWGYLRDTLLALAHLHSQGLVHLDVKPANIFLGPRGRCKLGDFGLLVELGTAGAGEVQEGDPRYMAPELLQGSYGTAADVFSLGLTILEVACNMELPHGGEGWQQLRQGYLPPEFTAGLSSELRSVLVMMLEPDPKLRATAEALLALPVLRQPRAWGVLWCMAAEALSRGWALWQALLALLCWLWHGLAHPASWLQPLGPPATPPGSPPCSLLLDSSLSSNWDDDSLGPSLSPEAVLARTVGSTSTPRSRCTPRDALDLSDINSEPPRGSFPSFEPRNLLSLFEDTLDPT

Study 1 — read-out: thermal unfolding; technique: differential scanning fluorimetry; tested at: 5.5 µM; reading: higher = more unfolded
SMILES: C[C@@H]1CN(c2ccc(-c3cc(C(=O)NCCOCCOCCOCCOCCNC(=O)/C=C/c4[nH]cc(C(=O)N[C@@H](CC(N)=O)c5ccc(F)c(Cl)c5)c4-c4ccc(Cl)cc4F)ccc3F)cc2NC(=O)c2c[nH]c(=O)cc2C(F)(F)F)C[C@H](C)N1C
WDR5: WD repeat-containing protein 5 (WDR5, Homo sapiens, UniProt P61964)
target | conditions | SYPRO Orange fluorescence [a.u.]
WDR5 | 68.21 °C | 14500
WDR5 | 91.81 °C | 48700
WDR5 | 31.2 °C | 12800
WDR5 | 31 °C | 12800
WDR5 | 27.8 °C | 12900
WDR5 | 84.21 °C | 51000
WDR5 | 35.6 °C | 13300
DDB1- and CUL4-associated factor 1 (DCAF1, Homo sapiens, UniProt Q9Y4B6) | 79.81 °C | 45500

Study 2 — cell line: U-87 MG; tested at: concentration not given; baseline: DMSO
Compound: CCN1/C(=C/C=C2\CCCC(/C=C/C3=[N+](CC)c4ccccc4C3(C)C)=C2NCCCCCCCCN2CCC(Nc3nc4ccccc4n3Cc3ccc(F)cc3)CC2)C(C)(C)c2ccccc21
test | log2 fold change
refers to: KIF20A mRNA | -2.9
refers to: BMPR1B mRNA | 1.46
refers to: PFDN2 mRNA | 0.819
refers to: FAM186B mRNA | 2.26
refers to: RNF114 mRNA | 0.83

Further values, each from its own experiment
Structure (SMILES) | tested on | test | test system | conditions | measurement | value
Cc1ccc(O)c(C)c1-c1cnc2[nH]c(-c3cnc(N4CCC5(CC4)CC(N4CCN(c6ccc(N[C@H]7CCC(=O)NC7=O)cc6F)CC4)CO5)nc3)cc2c1C#N (single isomer, unassigned) |  |  | male Sprague-Dawley rat, plasma | intravenous, 1 mg/kg | Vd | 3.7 L/kg
Cc1nc(C)c(C=[N+]([O-])C(C)(C)C)nc1C |  | Western blot | MPTP mouse model | 10 mg/kg | pSer9-GSK3β/total GSK3β | 133 and 113 and 196 and 102
Cc1ccc(O)c(C)c1-c1cnc2[nH]c(-c3cnc(N4CCC5(CC4)CC(N4CCN(c6ccc(N[C@H]7CCC(=O)N(C)C7=O)cc6F)CC4)CO5)nc3)cc2c1C#N (single isomer, unassigned) | Membrane-associated tyrosine- and threonine-specific cdc2-inhibitory kinase (PKMYT1, Homo sapiens, UniProt Q99640) | degrader, automated immunoblot (Jess) |  | 4.12 nM, 24 h | degradation | 9.18%

Repeated from above (study 1):
target | conditions | SYPRO Orange fluorescence [a.u.]
WDR5 | 68.21 °C | 14500
WDR5 | 27.8 °C | 12900
